Measured values pooled from the literature.
A part holds a random share of what one study measured.

Series 1
Target: Ras GTPase-activating protein-binding protein 1, full length (G3BP1, Homo sapiens, UniProt Q13283)
Chain of UniProt Q13283 (whole entry, looked up): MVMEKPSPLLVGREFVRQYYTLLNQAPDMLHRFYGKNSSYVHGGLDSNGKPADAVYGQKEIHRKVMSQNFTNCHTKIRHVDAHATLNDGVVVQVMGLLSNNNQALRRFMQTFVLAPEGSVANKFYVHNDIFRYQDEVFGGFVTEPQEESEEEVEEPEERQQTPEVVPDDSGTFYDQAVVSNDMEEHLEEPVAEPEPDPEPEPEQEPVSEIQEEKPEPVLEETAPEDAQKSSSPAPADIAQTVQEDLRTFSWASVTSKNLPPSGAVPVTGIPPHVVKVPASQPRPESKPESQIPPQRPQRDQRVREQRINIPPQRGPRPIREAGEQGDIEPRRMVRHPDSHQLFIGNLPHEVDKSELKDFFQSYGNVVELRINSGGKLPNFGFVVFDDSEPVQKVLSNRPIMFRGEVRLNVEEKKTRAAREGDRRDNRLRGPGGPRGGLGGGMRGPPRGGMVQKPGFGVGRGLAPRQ
Method: RNA Bind-n-Seq
Form: RNA
Medium: in vitro
Concentration: 200 nM
Notes: whole 134-nt RNA, ends assumed
Added: 150 mM KCl
Relative to: input library
Reading: higher = stronger binding
Quantity: log2 enrichment
All sequences stand within: GGGAGUUCUACAGUCCGACGAUC … UGGAAUUCUCGGGUGUCAAGG
Oligonucleotide = AGUCCUGUGCUACACAUCGUAUGUACCGAAUCGGGUUUUUGGGUUUUUGGGUUUGGGAAAGUAUUAUGUUACGCCGUUCGGAUCUGCACU; result = -0.341
Oligonucleotide = GUCCUGUGCUACACAUCGUAUGUACCGAAUCGGCCCCCCGGGGCCCCCCGGCCCCCCGGAAAGUAUUAUGUUACGCCGUUCGGAUCUGCA; result = -0.449
Oligonucleotide = UCCUGUGCUACACAUCGUAUGUACCGAAUCGGCCCCCCGGGGCCCCCCGGGCCCCCCGGAAAGUAUUAUGUUACGCCGUUCGGAUCUGCA; result = -0.714
Oligonucleotide = GUCCUGUGCUACACAUCGUAUGUACCGAAUCGGGGAAAAAGGGAAAAAGGGAAAAAGGGAAAGUAUUAUGUUACGCCGUUCGGAUCUGCA; result = -0.0959
Oligonucleotide = CCUGUGCUACACAUCGUAUGUACCGAAUCGGGCCCCCCGGGCCCCCCGGGCCCCCCGGGGAAAGUAUUAUGUUACGCCGUUCGGAUCUGC; result = -0.761

Series 2
Target: Histone acetyltransferase KAT6A, winged helix 1, GST fusion (KAT6A, Homo sapiens, UniProt Q92794, residues 1-85)
Method: protein binding microarray
Form: double-stranded DNA, one strand shown
Medium: in vitro
Concentration: not given
Notes: 8-mer, flanks averaged, mean of 2 arrays, mostly near background
Relative to: not given
Reading: higher = stronger binding
Quantity: E-score
Construct (chain): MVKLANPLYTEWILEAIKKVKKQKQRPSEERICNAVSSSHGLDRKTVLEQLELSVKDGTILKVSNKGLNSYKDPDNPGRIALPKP
Oligonucleotide = TACCACAA; result = -0.331
Oligonucleotide = GTAGCAAA; result = -0.0967
Oligonucleotide = CCTCCCAC; result = -0.0815
Oligonucleotide = CTTGTCCA; result = -0.208

Series 3
Target: PABPC1L2, full length, GST fusion (mouse, UniProt A0ABA7IW68)
Method: RNAcompete
Form: RNA
Medium: in vitro
Concentration: 20 nM
Notes: 7-mer, probes averaged, single round
Relative to: mean of 7-mers
Reading: higher = stronger binding
Quantity: 7-mer Z-score
Residues (chain): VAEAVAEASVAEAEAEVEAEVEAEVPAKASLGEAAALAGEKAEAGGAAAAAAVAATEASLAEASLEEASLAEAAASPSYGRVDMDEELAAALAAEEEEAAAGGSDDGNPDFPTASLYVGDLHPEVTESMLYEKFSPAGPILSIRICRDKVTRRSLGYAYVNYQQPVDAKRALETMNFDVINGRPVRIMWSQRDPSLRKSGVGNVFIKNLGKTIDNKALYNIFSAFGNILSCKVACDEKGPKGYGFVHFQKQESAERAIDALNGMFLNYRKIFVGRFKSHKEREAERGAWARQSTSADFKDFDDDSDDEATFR
Oligonucleotide = CACCUAA; result = -0.121
Oligonucleotide = AGCGAAU; result = -0.0228
Oligonucleotide = GUCUUAG; result = -0.421
Oligonucleotide = ACGCUCC; result = -0.11
Oligonucleotide = CGGGCCU; result = -0.142

Single results of other studies
Molecule = PhoQ, residues 284 288 289 292 302 303 NLALSC; target = PhoP, residues 12 14 15 18 19 AGCRL (Escherichia coli, UniProt P23836); test = Sort-seq, item: YFP reporter; test system = E. coli; setting = PhoQ-PhoP variant library, added: 10 µM Mg2+; scale = relative to: high Mg2+ state, higher = stronger signaling; quantity = fold induction; result = 2.14

For quick reference, copied from above (series 1):
Oligonucleotide = GUCCUGUGCUACACAUCGUAUGUACCGAAUCGGGGAAAAAGGGAAAAAGGGAAAAAGGGAAAGUAUUAUGUUACGCCGUUCGGAUCUGCA; result = -0.0959
Oligonucleotide = AGUCCUGUGCUACACAUCGUAUGUACCGAAUCGGGUUUUUGGGUUUUUGGGUUUGGGAAAGUAUUAUGUUACGCCGUUCGGAUCUGCACU; result = -0.341
